# Values quoted from earlier work, collected from citations in different studies.
# Lines come from different studies, so protocols differ.
SMILES,target or system,test,system,conditions,endpoint,result
O=C(/C=C/c1ccc(O)c2oc(-c3ccc(O)c(O)c3)cc12)O[C@H](Cc1ccc(O)c(O)c1)C(=O)O,SARS-CoV-2 spike S2,binding,,,Kd,284 µM
C#Cc1cn(C2OC(CSCCC(N)C(=O)O)C(O)C2O)c2ncnc(N)c12 (centres unmarked),SARS-CoV-2 nsp16 methyltransferase,"enzyme activity, inhibitor",,,IC50,1.2 µM
O=c1c(O)c(-c2cc(O)c(O)c(O)c2)oc2cc(O)cc(O)c12,SARS-CoV-2,cytopathic effect,Caco-2,10 µM,inhibition,-2.9%
CC(C)(C)NC(=O)N(CCCCCCN1C[C@H](O)[C@@H](O)[C@H](O)[C@H]1CO)C1CCCCC1,SARS-CoV-2,,A549-ACE2,,EC90,4 µM
Cc1ccc([Se]c2c(O)cc(O)c3c(=O)c(O)c(-c4ccc(O)c(O)c4)oc23)cc1,SARS-CoV-2,"viral replication, RT-qPCR",Vero,,EC50,8 µM
CC[C@H](C)[C@H](NC(=O)[C@H](Cc1ccc(O)cc1)NC(=O)[C@H](Cc1c[nH]cn1)NC(=O)[C@@H]1CSSC[C@H](NC(=O)[C@@H]2CCCN2C(=O)[C@H](CCCNC(=N)N)NC(=O)[C@H](CC(C)C)NC(=O)[C@H](CC(=O)O)NC(=O)[C@@H]2CCCN2C(=O)[C@H](CCCCN)NC(=O)CNC(=O)CN)C(=O)N[C@@H](Cc2ccc(O)cc2)C(=O)N2CCC[C@H]2C(=O)N2CCC[C@H]2C(=O)N1)C(=O)N1CCC[C@H]1C(=O)N[C@@H](CCCNC(=N)N)C(=O)N1CCC[C@H]1C(=O)N[C@@H](CCCCN)C(=O)N1CCC[C@H]1C(=O)N[C@@H](CCCNC(=N)N)C(=O)O,,,mouse,,LD50,0.58 mg/kg
Oc1nc(/C=C/c2ccc(Cl)c(Cl)c2)cc(C(F)(F)F)n1,SARS-CoV-2 nsp16,"enzyme activity, inhibitor",,2 h,IC50,4 µM
O=c1c2ccccc2[se]n1-c1cccc(C(F)(F)F)c1,SARS-CoV-2,"viral replication, RT-qPCR",Vero,,EC50,0.8 µM

# Excerpt of the above:
SMILES,target or system,test,system,conditions,endpoint,result
C#Cc1cn(C2OC(CSCCC(N)C(=O)O)C(O)C2O)c2ncnc(N)c12 (centres unmarked),SARS-CoV-2 nsp16 methyltransferase,"enzyme activity, inhibitor",,,IC50,1.2 µM
